# Experimental data collected from several papers.
# Each line is one published result; not all experiments were run side by side.
# Technique: steady-state kinetics
# B1: enzyme D254A (Thermococcus kodakarensis, UniProt Q5JID5); chain MLYVEILGNLPEMARDEVKAMLELGGGEIIGQDYLFLKVDAGEKAFPFLDRLGLAHEYGLLLVEADSVEELLQKAGEVEWPIKGAFKVDTETMANCRHDVLDLPRKLGAVIHAQGFRVNLSKPDTVVRVYCGERLYAGIRLRYFDPKDFEKRKAHHRPFFRPISLHPRVSRALVNLTKATREILDPFMGAGGILIEAGLLGLRVYGVDIRPEMVEGAETNLKHYGVRDYTLKLGDATRLEDLFPDKKFEAVATAPPYGTAATLAGRKRDELYRKALRSIYNVLEDGGRLAIAFPTDFNGKAEAEAVGFRTLGRYYQRVHKSLERYFYVFEK
# B2: protein Y93C (Thermus thermophilus, UniProt Q5SKR5); chain MSAPKPFVIGIAGGTASGKTTLAQALARTLGERVALLPMDHYYKDLGHLPLEERLRVNYDHPDAFDLALYLEHAQALLRGLPVEMPVYDFRACTRSPRRTPVRPAPVVILEGILVLYPKELRDLMDLKVFVDADADERFIRRLKRDVLERGRSLEGVVAQYLEQVKPMHLHFVEPTKRYADVIVPRGGQNPVALEMLAAKALARLARMGAA
# B3: enzyme (UniProt A0A2T5C445); chain MKSKQLNTDLFKVQAKQQIRLKNYDPASCNGFANRKEAEHQLKQDIKELADLQYQLYAENKRSVLIVFQAMDAAGKDGSIRHVFSGLNPQGCKVYSFKSPSANELDHDYLWRHYNKLPPRGEIGIFNRSHYENVLITRVHPEFLLNENLPDVHATNDITTEFWERRYRQIRDFEQTLTENGTTIIKFFLHLSKDEQKKRFMERIRKPAKNWKFSSADIRERQYWDDYQHAYEQAMRATSTEEAPWYIIPADNKWFTHVAIGNIIVETLQQMNIQMPEISSEEKDALKKAKKKLQNE
# B4: GTPBP3 E459K (Homo sapiens, UniProt Q969Y2); chain TRRSSGAPAPGSGATIFALSSGQGRCGIAVIRTSGPASGHALRILTAPRDLPLARHASLRLLSDPRSGEPLDRALVLWFPGPQSFTGEDCVEFHVHGGPAVVSGVLQALGSVPGLRPAEAGEFTRRAFANGKLNLTEVEGLADLIHAETEAQRRQALRQLDGELGHLCRGWAETLTKALAHVEAYIDFGEDDNLEEGVLEQADIEVRALQVALGAHLRDARRGQRLRSGVHVVVTGPPNAGKSSLVNLLSRKPVSIVSPEPGTTRDVLETPVDLAGFPVLLSDTAGLREGVGPVEQEGVRRARERLEQADLILAMLDASDLASPSSCNFLATVVASVGAQSPSDSSQRLLLVLNKSDLLSPEGPGPGPDLPPHLLLSCLTGEGLDGLLEALRKELAAVCGDPSTDPPLLTRARHQHHLQGCLDALGHYKQSKDLALAAKALRVARGHLTRLTGGGGTEEILDIIFQDFCVGK
# B5: YdjH (Escherichia coli, UniProt P77493); chain MDNLDVICIGAAIVDIPLQPVSKNIFDVDSYPLERIAMTTGGDAINEATIISRLGHRTALMSRIGKDAAGQFILDHCRKENIDIQSLKQDVSIDTSINVGLVTEDGERTFVTNRNGSLWKLNIDDVDFARFSQAKLLSLASIFNSPLLDGKALTEIFTQAKARQMIICADMIKPRLNETLDDICEALSYVDYLFPNFAEAKLLTGKETLDEIADCFLACGVKTVVIKTGKDGCFIKRGDMTMKVPAVAGITAIDTIGAGDNFASGFIAALLEGKNLRECARFANATAAISVLSVGATTGVKNRKLVEQLLEEYEG
# B6: panA (Haloferax volcanii, UniProt D4GUJ7); chain MMTDTVDDVDLPYDKDSASQQEKITALQERLEVLETQNEEMRDKLLDTNAENNKYQQKLERLTHENKKLKQSPLFVATVQEITDEGVIIKQHGNNQEALTEVTDEMREELEPDARVAVNNSLSIVKRLDKETDVRARVMQVEHSPDVTYEDIGGLEEQMQEVRETVEMPLDRPEMFAEVGIDPPSGVLLYGPPGTGKTMLAKAVANQTNASFIKMAGSELVHKFIGEGAKLVRDLFEVARENEPAVIFIDEIDAIASKRTDSKTSGDAEVQRTMMQLLAEMDGFDERGNIRIIAATNRFDMLDPAILRPGRFDRLIEVPKPNEDGREIIFQIHTRKMNVSDDVDFVELAEMADNASGADIKAVCTEAGMFAIRDDRTEIFMQDFVDAWEKIQQEASDETEVSRAFA
# B7: enzyme (Trypanosoma cruzi, UniProt Q4DSA0); chain MAARTDDPRLLSLFSAQREEDADIVIIGFPYDEGCVRNGGRAGAKKGPAAFRFFLQRLGSVNNLELNVDASHLKLYDAGDITASTLEEAHEKLESKVFTVLARGAFPFVIGGGNDQSAPNGRAMLRAFPGDVGVINVDSHLDVRPPLSDGRVHSGTPFRQLLEESSFSGKRFVEFACQGSQCGALHAQYVRDHQGHLMWLSEVRKKGAVAALEDAFGLTGKNTFFSFDVDSLKSSDMPGVSCPAAVGLSAQEAFDMCFLAGKTPTVMMMDMSELNPLVEEYRSPRVAVYMFYHFVLGFATRSKPKAEN
# Chain of UniProt P56926 (whole entry, looked up): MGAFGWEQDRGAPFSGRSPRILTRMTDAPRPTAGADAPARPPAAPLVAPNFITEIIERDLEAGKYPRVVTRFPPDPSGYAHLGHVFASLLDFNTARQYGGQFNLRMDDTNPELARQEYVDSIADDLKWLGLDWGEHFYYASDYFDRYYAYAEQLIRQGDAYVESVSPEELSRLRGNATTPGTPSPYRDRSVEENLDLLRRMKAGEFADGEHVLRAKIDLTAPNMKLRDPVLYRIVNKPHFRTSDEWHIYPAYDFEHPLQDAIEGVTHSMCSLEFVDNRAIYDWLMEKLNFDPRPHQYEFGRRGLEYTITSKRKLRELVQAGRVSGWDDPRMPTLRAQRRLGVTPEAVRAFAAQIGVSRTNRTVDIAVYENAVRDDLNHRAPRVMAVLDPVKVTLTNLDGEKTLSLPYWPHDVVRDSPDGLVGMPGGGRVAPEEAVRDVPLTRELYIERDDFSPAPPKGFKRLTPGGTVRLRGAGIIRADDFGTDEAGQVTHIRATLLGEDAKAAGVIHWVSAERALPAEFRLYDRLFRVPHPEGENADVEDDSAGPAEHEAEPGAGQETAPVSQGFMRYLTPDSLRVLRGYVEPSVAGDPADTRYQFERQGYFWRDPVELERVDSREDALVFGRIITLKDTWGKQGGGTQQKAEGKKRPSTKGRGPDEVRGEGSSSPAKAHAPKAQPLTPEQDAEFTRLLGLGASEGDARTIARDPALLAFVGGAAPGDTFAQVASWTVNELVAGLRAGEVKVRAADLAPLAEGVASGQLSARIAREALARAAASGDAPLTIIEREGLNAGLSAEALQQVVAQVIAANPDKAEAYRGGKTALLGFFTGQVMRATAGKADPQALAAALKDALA
# Chain of UniProt P07379 (whole entry, looked up): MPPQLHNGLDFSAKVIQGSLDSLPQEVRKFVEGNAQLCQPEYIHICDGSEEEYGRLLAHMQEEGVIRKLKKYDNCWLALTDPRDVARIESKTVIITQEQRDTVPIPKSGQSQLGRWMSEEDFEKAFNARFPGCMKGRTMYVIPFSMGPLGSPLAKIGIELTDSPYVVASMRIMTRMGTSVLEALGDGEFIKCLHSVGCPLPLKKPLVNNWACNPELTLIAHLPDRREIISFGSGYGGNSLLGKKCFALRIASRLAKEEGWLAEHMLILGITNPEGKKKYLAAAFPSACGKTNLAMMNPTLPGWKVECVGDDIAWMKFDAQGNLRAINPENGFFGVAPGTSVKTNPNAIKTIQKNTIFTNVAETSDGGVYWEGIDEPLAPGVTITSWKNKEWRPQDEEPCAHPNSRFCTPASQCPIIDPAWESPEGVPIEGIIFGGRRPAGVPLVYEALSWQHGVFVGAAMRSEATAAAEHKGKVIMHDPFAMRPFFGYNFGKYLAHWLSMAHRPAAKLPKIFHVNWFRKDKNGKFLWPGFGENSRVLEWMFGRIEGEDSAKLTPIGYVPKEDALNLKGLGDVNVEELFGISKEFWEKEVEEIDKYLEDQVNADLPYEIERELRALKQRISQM
# Chain of UniProt P07914 (whole entry, looked up): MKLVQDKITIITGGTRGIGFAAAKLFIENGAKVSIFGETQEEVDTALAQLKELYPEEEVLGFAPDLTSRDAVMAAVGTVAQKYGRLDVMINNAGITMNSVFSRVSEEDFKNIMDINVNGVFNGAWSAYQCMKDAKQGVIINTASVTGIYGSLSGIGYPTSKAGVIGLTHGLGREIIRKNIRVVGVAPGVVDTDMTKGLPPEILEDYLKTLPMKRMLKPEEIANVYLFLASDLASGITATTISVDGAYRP
Substance,substrate,conditions,Km
B1 (enzyme D254A),C[S+](CC[C@H](N)C(=O)O)C[C@H]1O[C@@H](n2cnc3c(N)ncnc32)[C@H](O)[C@@H]1O,"pH 7.5, 50 °C, apparent",26 µM
"Pck1 (Rattus norvegicus, UniProt P07379)",O=C(O)CC(=O)C(=O)O,"pH 7.5, 25 °C, with: OAA, GTP",52 µM
"protein I23F/S203N/S29F (Manduca sexta, UniProt Q8I8Y1)",Oc1ccc(O)cc1,pH 7,53200 µM
"BaiA1 (Clostridium scindens, UniProt P07914)",C[C@H](CCC(=O)SCCNC(=O)CCNC(=O)[C@H](O)C(C)(C)COP(=O)(O)OP(=O)(O)OC[C@H]1O[C@@H](n2cnc3c(N)ncnc32)[C@H](O)[C@@H]1OP(=O)(O)O)[C@H]1CC[C@H]2[C@@H]3CC[C@@H]4CC(=O)CC[C@]4(C)[C@H]3CC[C@]12C,"pH 8.7, 37 °C, with: NADH",8.3 µM
B2 (protein Y93C),Nc1ccn([C@@H]2O[C@H](CO)[C@@H](O)[C@H]2O)c(=O)n1,"pH 7.2, 25 °C, KCl 100 mM, with: ATP 100–200 µM",215 µM
B3 (enzyme),Nc1ncnc2c1ncn2[C@@H]1O[C@H](COP(=O)(O)O)[C@@H](O)[C@H]1O,"pH 8, 30 °C",2900 µM
B4 (GTPBP3 E459K),Nc1nc2c(ncn2[C@@H]2O[C@H](COP(=O)(O)OP(=O)(O)OP(=O)(O)O)[C@@H](O)[C@H]2O)c(=O)[nH]1,"pH 8, 37 °C, KCl 300 mM",12 µM
B5 (YdjH),O=C(CO)[C@@H](O)[C@H](O)[C@H](O)[C@@H](O)CO,"pH 7.4, 30 °C, KCl 100 mM, with: ATP 2.0 mM, MgCl2 5.0 mM",14500 µM
"enzyme (Deinococcus radiodurans, UniProt P56926)",NC(=O)CC[C@H](N)C(=O)O,"pH 7.2, 37 °C",186 µM
B6 (panA),Nc1ncnc2c1ncn2[C@@H]1O[C@H](COP(=O)(O)OP(=O)(O)OP(=O)(O)O)[C@@H](O)[C@H]1O,"pH 8, 42 °C, NaCl 2 M, with: MgCl2 9.6 mM",438 µM
"POLH (Homo sapiens, UniProt Q9Y253)",Nc1nc2c(ncn2[C@H]2C[C@H](O)[C@@H](COP(=O)(O)OP(=O)(O)OP(=O)(O)O)O2)c(=O)[nH]1,30 °C,24.7 µM
"enzyme (Bifidobacterium adolescentis, UniProt A1A3M6)",O=[N+]([O-])c1ccc(O[C@H]2OC[C@H](O)[C@H](O)[C@H]2O)cc1,"pH 5, 40 °C",1480 µM
B7 (enzyme),N=CN[C@@H](CCC(=O)O)C(=O)O,"pH 9.5, 22 °C, apparent",40000 µM
